Published values from different studies.
pKd: −log10 of the molar value.
T1: G-quadruplex DNA (Homo sapiens); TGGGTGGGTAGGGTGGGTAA
T2: G-quadruplex DNA (Homo sapiens); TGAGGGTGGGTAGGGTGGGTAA
T3: G-quadruplex DNA, c-KIT promoter (Homo sapiens); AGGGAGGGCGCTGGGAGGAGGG
T4: G-quadruplex DNA, parallel (Homo sapiens); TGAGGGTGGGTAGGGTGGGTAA
T5: G-quadruplex DNA, hybrid-1 monomeric G4 (Homo sapiens); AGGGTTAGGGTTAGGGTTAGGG
T6: G-quadruplex DNA (Streptococcus pneumoniae); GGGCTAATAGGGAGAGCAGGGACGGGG
T7: G-quadruplex DNA (Homo sapiens); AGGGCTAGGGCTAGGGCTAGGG
T8: G-quadruplex DNA dimer (Homo sapiens); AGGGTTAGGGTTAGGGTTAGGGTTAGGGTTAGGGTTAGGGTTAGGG
T9: G-quadruplex DNA, human telomere G4 (Homo sapiens); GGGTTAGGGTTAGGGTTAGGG
T10: G-quadruplex DNA, hairpin duplex plus G4 (Homo sapiens); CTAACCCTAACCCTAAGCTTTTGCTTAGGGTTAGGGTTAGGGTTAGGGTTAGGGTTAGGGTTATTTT
T11: G-quadruplex DNA, G-quadruplex (Homo sapiens); AGGGTGGGCTGGGAGGT
T12: G-quadruplex DNA, hybrid fold (Homo sapiens); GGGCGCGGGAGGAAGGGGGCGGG
T13: G-quadruplex DNA, human telomeric (Homo sapiens); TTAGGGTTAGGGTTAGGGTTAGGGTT
T14: G-quadruplex DNA, dimeric G-quadruplex; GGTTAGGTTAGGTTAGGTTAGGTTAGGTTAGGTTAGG
T15: G-quadruplex DNA G13T (Homo sapiens); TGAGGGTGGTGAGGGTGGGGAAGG

| SMILES | target | test | conditions | how to read | endpoint | result |
| --- | --- | --- | --- | --- | --- | --- |
| CN(C)c1ccc2c(c1)[Si](C)(C)C1=CC(=[N+](C)C)C=CC1=C2c1cc(C(=O)NCCCCCC(=O)NCCOc2cc(C(=O)Nc3cc(OCCN4CCCC4)c4ccccc4n3)nc(C(=O)Nc3cc(OCCN4CCCC4)c4ccccc4n3)c2)ccc1C(=O)[O-] | T1, G-quadruplex DNA (Homo sapiens) | fluorescence titration | pH 7.4, KCl 100 mM, apparent, light-up |  | pKd | 6.20 |
| C[n+]1cccc2cc(/C=N/NC(=O)c3ccc4ccc5ccc(C(=O)N/N=C/c6ccc7c(ccc[n+]7C)c6)nc5c4n3)ccc21 | T2, G-quadruplex DNA (Homo sapiens) | Cy5 fluorescence quenching titration | pH 7.2, KCl 100 mM, first transition |  | pKd | 7.74 |
| OCc1c(-c2ccccc2)nc2n1ccc1nc(-c3ccccc3)c(C=NNC3=NCCN3)n12 | T3, G-quadruplex DNA, c-KIT promoter (Homo sapiens) | thiazole orange displacement, competitor, fluorescent intercalator displacement | KCl 20 mM |  | binding | binds weakly |
| C[n+]1ccc(/C=N/NC(=O)c2cccc(C(=O)N/N=C/c3cc[n+](C)c4ccccc34)n2)c2ccccc21 | T4, G-quadruplex DNA, parallel (Homo sapiens) | Cy5 fluorescence quenching titration | 2 nM, pH 7.2, KCl 100 mM |  | pKd | 7.95 |
| CN(C)CCCNc1cc2c3c(c(NCCCCCCCNc4cc5c6c(ccc7c6c4C(=O)N(CCCN(C)C)C7=O)C(=O)N(CCCN(C)C)C5=O)cc4c3c1C(=O)N(CCCN(C)C)C4=O)C(=O)N(CCCN(C)C)C2=O | T5, G-quadruplex DNA, hybrid-1 monomeric G4 (Homo sapiens) | ITC | pH 7.0, 25 °C, KCl 100 mM |  | pKd | 6.28 |
| CN(C)CCCOc1cc(C(=O)NCc2cn(Cc3c4ccccc4cc4ccccc34)nn2)nc(C(=O)NCc2cn(Cc3c4ccccc4cc4ccccc34)nn2)c1 | T6, G-quadruplex DNA (Streptococcus pneumoniae) | FRET melting | 5 µM, pH 7.4, potassium cacodylate 60 mM | baseline: DNA without compound, higher = more stabilisation | melting temperature shift | 7 °C |
| C[n+]1ccc(/C=N/NC(=O)c2cncc(C(=O)N/N=C/c3cc[n+](C)c4ccccc34)n2)c2ccccc21 | T7, G-quadruplex DNA (Homo sapiens) | UV melting | 6 µM |  | change in melting temperature | 25 °C |
| CCN(CC)c1ccc2cc(-c3nc4c5cccnc5c5ncccc5c4[nH]3)c(=O)oc2c1.NCCN.[Pt+2] | T8, G-quadruplex DNA dimer (Homo sapiens) | CD melting | pH 7.0, KCl 100 mM |  | change in melting temperature | 9 °C |
| CN(C)CCCn1c(=O)c2ccc3c(=O)n(CCCN(C)C)c(=O)c4c5[nH]c6ccccc6[nH]c5c(c1=O)c2c34 | T9, G-quadruplex DNA, human telomere G4 (Homo sapiens) | SPR | pH 7.4, K+ 0.2 M |  | pKd | 7.88 |
| [N-]=[N+]=NCCOc1cc(C(=O)Nc2cc(OCCN)c3ccccc3n2)nc(C(=O)Nc2cc(OCCN)c3ccccc3n2)c1 | T10, G-quadruplex DNA, hairpin duplex plus G4 (Homo sapiens) | SPR | pH 7.4, 25 °C, KCl 200 mM |  | pKd | 6.66 |
| CCC1=C(C)c2cc3[nH]c(cc4nc(cc5[nH]c(cc1n2)c(C)c5CCC(=O)NCCOCCOCC(=O)NCCN(CC(=O)N[C@H](CCCCN)C(=O)N[C@H](CCCCN)C(N)=O)C(=O)Cn1cnc2c(=O)[nH]c(N)nc21)C(CCC(=O)O)=C4C)c(C)c3CC | T11, G-quadruplex DNA, G-quadruplex (Homo sapiens) | fluorescence titration | pH 7.4, KCl 50 mM, single-site fit |  | pKd | 7.16 |
| CCn1c(-c2cccc(-c3nc4ccccc4n3CC)n2)nc2ccccc21.[C-]#Cc1ccc(C[N+](C)(C)C)cc1.[Pt+2] | T12, G-quadruplex DNA, hybrid fold (Homo sapiens) | UV melting |  |  | binding | binds weakly |
| Cc1ccc(-c2nc3n(ccc4nc(-c5ccc(C)cc5)c(C=NNC5=NCCN5)n43)c2C=O)cc1 | T13, G-quadruplex DNA, human telomeric (Homo sapiens) | CD melting | DNA 10 µM, KCl 20 mM |  | melting temperature shift | 1.3 °C |
| Cc1ccc(Cn2cc3c(-c4ccc5c(c4)OCO5)nnc-3c3cc4c(cc32)OCO4)cc1 | T14, G-quadruplex DNA, dimeric G-quadruplex | fluorescence titration | NaCl 100 mM |  | pKd | 5.29 |
| C[n+]1cc(C(=O)Nc2ccc3[nH]cc(Cc4c[nH]c5ccc(NC(=O)CCC[N+]6(C)CC[N+](C)(C)CC6)cc45)c3c2)cc2ccccc21 | T15, G-quadruplex DNA G13T (Homo sapiens) | microscale thermophoresis | KCl 100 mM |  | pKd | 5.52 |

A few entries again:
| SMILES | target | test | conditions | how to read | endpoint | result |
| --- | --- | --- | --- | --- | --- | --- |
| CN(C)CCCOc1cc(C(=O)NCc2cn(Cc3c4ccccc4cc4ccccc34)nn2)nc(C(=O)NCc2cn(Cc3c4ccccc4cc4ccccc34)nn2)c1 | T6, G-quadruplex DNA (Streptococcus pneumoniae) | FRET melting | 5 µM, pH 7.4, potassium cacodylate 60 mM | baseline: DNA without compound, higher = more stabilisation | melting temperature shift | 7 °C |
| C[n+]1ccc(/C=N/NC(=O)c2cncc(C(=O)N/N=C/c3cc[n+](C)c4ccccc34)n2)c2ccccc21 | T7, G-quadruplex DNA (Homo sapiens) | UV melting | 6 µM |  | change in melting temperature | 25 °C |
